Assay results from different studies.
Lines come from different studies, so protocols differ. pEC50, pIC50: −log10 of the molar value.
Cell line: CCRF-CEM

Structure (SMILES) = C#C[C@@]1(O)[C@@H](CO)O[C@@H](n2cc(Cl)c3c(N)ncnc32)[C@@H]1O; observed = cell growth or viability; method = SRB; time = 48 h; quantity = GI50; value = 248 nM
Structure (SMILES) = O=C1c2cccc(O)c2C(=O)c2c(O)cc(CO)cc21; observed = cell growth or viability; method = ATP luminescence; time = 24 h; quantity = pIC50; value = 3.68
Structure (SMILES) = CCOP(=O)(OCC)[C@H]1C[C@@H](Cn2c(=O)n(C(=O)c3ccccc3)c(=O)c3ccccc32)ON1Cc1ccccc1 (relative stereo); observed = cell growth or viability; time = 72 h; quantity = pIC50; value = ≤ 3.60
Structure (SMILES) = O=c1cc(-c2ccccc2)oc2cc(O)cc(O)c12; observed = cell growth or viability; method = ATP luminescence; time = 24 h; quantity = pIC50; value = 3.89
Structure (SMILES) = O=c1[nH]cc(F)c(=O)[nH]1; observed = cell growth or viability; time = 72 h; quantity = pIC50; value = 4.74
Structure (SMILES) = COc1ccc(C[C@H]2COC(=O)[C@@H]2Cc2ccc(OCC(=O)Nc3ccc(C(=O)Nc4ccccc4N)cc3)c(OC)c2)cc1OC; observed = cell growth or viability; method = CCK-8; time = 48 h; quantity = pIC50; value = 5.66
Structure (SMILES) = Nc1ncnc2c1ncn2[C@@H]1O[C@H](CO)[C@@H](O)[C@H](F)[C@H]1O; observed = cell growth or viability; quantity = pIC50; value = 3.91
Structure (SMILES) = COc1ccc(-c2nc([C@@H](C)Sc3nc(N)cc(N)n3)c(C)s2)cc1OCCN1CCOCC1; observed = rescue from gemcitabine toxicity; method = CellTiter-Glo; time = 72 h; with = gemcitabine 10 nM; quantity = pEC50; value = 7.99
Structure (SMILES) = Cc1cc(O)c2c(c1)C(=O)c1cc(O)cc(O)c1C2=O; observed = cell growth or viability; method = ATP luminescence; time = 24 h; quantity = pIC50; value = 4.66
Structure (SMILES) = COc1ccc(C[C@H]2COC(=O)[C@@H]2Cc2ccc(OCC(=O)NCCC(=O)Nc3ccccc3N)c(OC)c2)cc1OC; observed = cell growth or viability; method = CCK-8; time = 48 h; quantity = pIC50; value = < 5.30
Structure (SMILES) = O=c1c(O)c(-c2ccc(O)c(O)c2)oc2cc(O)cc(O)c12; observed = cell growth or viability; method = ATP luminescence; time = 24 h; quantity = pIC50; value = 5.00
Structure (SMILES) = COc1ccc(C[C@H]2COC(=O)[C@@H]2Cc2ccc(OCC(=O)NCCCCC(=O)Nc3ccccc3N)c(OC)c2)cc1OC; observed = cell growth or viability; method = CCK-8; time = 48 h; quantity = pIC50; value = < 5.30
Structure (SMILES) = C#C[C@@]1(O)[C@@H](CO)O[C@@H](n2cc(Br)c3c(N)ncnc32)[C@@H]1O; observed = cell growth or viability; method = SRB; time = 48 h; quantity = GI50; value = 213 nM
Structure (SMILES) = Nc1ccn([C@@H]2O[C@H](CO)[C@@H](O)[C@H](F)[C@H]2O)c(=O)n1; observed = cell growth or viability; quantity = pIC50; value = 3.81
Structure (SMILES) = COc1ccc(C[C@H]2COC(=O)[C@@H]2Cc2ccc(OCc3cn(CC(=O)NO)nn3)c(OC)c2)cc1OC; observed = cell growth or viability; method = CCK-8; time = 48 h; quantity = pIC50; value = < 5.30
